Published values pooled from the literature.
Every numbered part comes from another study and shows a few of its results, in no order.

Sample 1 — method: universal PBM; molecule type: double-stranded DNA, one strand shown; sample: in vitro; concentration: not given; reading: higher = stronger binding
Target: Sal-like protein 4, full length isoform B (SALL4, Homo sapiens, UniProt Q9UJQ4-2, residues 1-616)
Notes: 8-mer, flanks averaged, mean of replicates
With `AGGGATCA` the E-score was 0.0111.
For `CATCGTGC`, the E-score was -0.0602.
For `CATGCGAA`, the E-score was 0.102.
With `ACGAGGTC` the E-score was -0.0904.
`CGAAAGCC` has an E-score of -0.258.
`AAACGCAC` has an E-score of 0.00937.
With `CTTTCTGA` the E-score was 0.159.
The E-score of `GCGGGTCC` is reported as -0.34.

Sample 2 — method: protein binding microarray; molecule type: double-stranded DNA, one strand shown; sample: in vitro; concentration: not given; reference: not given; reading: higher = stronger binding
Target: Histone acetyltransferase KAT6A, winged helix 2, GST fusion (KAT6A, Homo sapiens, UniProt Q92794, residues 85-181)
Notes: 8-mer, flanks averaged, mean of 2 arrays, mostly near background
Construct (chain): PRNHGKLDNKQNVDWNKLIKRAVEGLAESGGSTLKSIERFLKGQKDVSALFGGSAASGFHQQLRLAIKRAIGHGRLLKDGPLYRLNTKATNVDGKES
The E-score of `ATGTGTTG` is reported as 0.0306.
`AACCAGGA` gave an E-score of -0.0902.
The E-score of `AGCGTGTG` is reported as -0.112.
`CCGGACGA` gave an E-score of 0.166.
`AGACATTG` gave an E-score of -0.106.
The E-score of `ACACAGTC` is reported as -0.149.
`CCCATAAA` has an E-score of 0.0827.
`AGCGGTGA` has an E-score of -0.0439.
With `AAGTTACC` the E-score was 0.107.
The E-score of `CGTAAATA` is reported as 0.0545.

Sample 3 — method: protein-binding microarray; molecule type: double-stranded DNA, one strand shown; sample: in vitro; concentration: 250 nM; notes: 60-bp whole probe; together with: salmon DNA 0.4 mg/ml; reference: random background probes; reading: higher = stronger binding; shared flanks, not repeated: GCCTAGCAC … GTCTTGATTCGCTTGACGCTGCTG
Target: Interferon regulatory factor 5, full length, phosphomimetic (IRF5, Homo sapiens, UniProt Q13568-2, residues 1-514, K96S/S451D/S453D/S456D/S462D)
The log fluorescence of `TTAGGTCTCCTTTTCCTTTTGTGCTAG` is reported as 0.407 z-score.
`TTGGTTCTTATCCTTCCCCTCGTGCTA` gave a log fluorescence of 0.239 z-score.
`GACGGTTGCCTTCTCCTGACGTGCTAG` gave a log fluorescence of 0.0753 z-score.
The log fluorescence of `GACGGTATCGGTCCCGGGACGTGCTAG` is reported as 4.89 z-score.
`TTAGATCTCAGCCTGGATTAGTGCTAG` has a log fluorescence of -0.179 z-score.
With `TTAGGTTTCGGAGTGGGTTAGTGCTAG` the log fluorescence was 5.16 z-score.
With `TTAGGTATCGGACTAGGTTAGTGCTAG` the log fluorescence was 1.81 z-score.
With `GACGAACTGAGTTCCGAGACGTGCTAG` the log fluorescence was -0.215 z-score.
With `AACGATTTCAGTATCGAGACGTGCTAG` the log fluorescence was 4.05 z-score.
`GACGGTCTCAGTATCGGGACGTGCTAG` gave a log fluorescence of 1.54 z-score.

Mixed results
`PhoQ, residues 284 288 289 292 302 303 MLMVEA` gave a fold induction of 6.78 (PhoP, residues 12 14 15 18 19 NQCAL (Escherichia coli, UniProt P23836); Sort-seq, measured: YFP reporter; E. coli; PhoQ-PhoP variant library, together with: 10 µM Mg2+; reference: high Mg2+ state, higher = stronger signaling).

Excerpt of the above (sample 3):
With `TTAGGTATCGGACTAGGTTAGTGCTAG` the log fluorescence was 1.81 z-score.
With `GACGAACTGAGTTCCGAGACGTGCTAG` the log fluorescence was -0.215 z-score.
